# Experimental data pooled from the literature.
# Parts stem from different laboratories: compare values within a part only.
# Chain of UniProt Q9UHD2 (whole entry, looked up): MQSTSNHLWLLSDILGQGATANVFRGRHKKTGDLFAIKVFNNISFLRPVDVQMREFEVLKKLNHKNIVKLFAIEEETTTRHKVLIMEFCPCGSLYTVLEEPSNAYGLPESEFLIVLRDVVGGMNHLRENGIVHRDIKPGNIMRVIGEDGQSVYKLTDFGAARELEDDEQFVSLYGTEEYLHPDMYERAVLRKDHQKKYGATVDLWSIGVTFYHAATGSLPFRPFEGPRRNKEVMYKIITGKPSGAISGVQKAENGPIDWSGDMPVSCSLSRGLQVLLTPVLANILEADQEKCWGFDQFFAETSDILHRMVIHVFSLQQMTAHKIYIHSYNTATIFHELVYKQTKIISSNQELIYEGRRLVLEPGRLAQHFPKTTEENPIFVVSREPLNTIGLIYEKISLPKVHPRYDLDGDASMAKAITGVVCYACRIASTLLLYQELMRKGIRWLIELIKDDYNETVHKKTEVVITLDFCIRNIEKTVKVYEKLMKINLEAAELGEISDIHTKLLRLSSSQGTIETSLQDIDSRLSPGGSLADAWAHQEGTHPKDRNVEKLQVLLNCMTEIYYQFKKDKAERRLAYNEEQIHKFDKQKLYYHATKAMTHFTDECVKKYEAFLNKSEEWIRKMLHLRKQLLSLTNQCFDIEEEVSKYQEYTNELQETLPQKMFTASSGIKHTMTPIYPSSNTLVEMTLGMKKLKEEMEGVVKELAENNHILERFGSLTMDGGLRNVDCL
# Chain of UniProt P52333 (whole entry, looked up): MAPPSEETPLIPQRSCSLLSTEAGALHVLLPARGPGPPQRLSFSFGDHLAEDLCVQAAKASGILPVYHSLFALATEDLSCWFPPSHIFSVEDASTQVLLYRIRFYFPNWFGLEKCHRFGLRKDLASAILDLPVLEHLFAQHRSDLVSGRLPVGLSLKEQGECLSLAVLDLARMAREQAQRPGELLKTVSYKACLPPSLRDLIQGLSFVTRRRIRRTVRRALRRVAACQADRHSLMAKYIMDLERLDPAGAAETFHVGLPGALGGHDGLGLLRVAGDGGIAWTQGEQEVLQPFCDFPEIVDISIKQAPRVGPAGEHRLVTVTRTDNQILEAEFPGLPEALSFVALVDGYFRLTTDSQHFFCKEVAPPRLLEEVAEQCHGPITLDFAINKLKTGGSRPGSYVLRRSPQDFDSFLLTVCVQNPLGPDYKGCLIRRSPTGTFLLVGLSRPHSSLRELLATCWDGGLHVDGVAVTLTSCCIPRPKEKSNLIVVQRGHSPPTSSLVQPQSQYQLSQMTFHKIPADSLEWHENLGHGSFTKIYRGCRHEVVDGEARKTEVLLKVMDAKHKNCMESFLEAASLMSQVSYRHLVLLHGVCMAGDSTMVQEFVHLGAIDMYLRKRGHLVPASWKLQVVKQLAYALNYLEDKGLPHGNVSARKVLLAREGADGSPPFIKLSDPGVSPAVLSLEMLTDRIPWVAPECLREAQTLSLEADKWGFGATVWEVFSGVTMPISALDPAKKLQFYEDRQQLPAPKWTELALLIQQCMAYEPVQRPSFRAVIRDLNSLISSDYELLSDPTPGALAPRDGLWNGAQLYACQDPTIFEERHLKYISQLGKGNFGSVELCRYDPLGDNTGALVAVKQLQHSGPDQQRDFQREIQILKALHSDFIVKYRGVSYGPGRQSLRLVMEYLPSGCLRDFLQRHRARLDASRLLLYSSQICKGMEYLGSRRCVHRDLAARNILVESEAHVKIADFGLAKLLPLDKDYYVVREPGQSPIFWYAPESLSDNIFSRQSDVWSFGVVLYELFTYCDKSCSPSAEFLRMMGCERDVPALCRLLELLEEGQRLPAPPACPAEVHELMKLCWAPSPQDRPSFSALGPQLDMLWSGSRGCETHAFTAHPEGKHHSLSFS
# Chain of UniProt P06239 (whole entry, looked up): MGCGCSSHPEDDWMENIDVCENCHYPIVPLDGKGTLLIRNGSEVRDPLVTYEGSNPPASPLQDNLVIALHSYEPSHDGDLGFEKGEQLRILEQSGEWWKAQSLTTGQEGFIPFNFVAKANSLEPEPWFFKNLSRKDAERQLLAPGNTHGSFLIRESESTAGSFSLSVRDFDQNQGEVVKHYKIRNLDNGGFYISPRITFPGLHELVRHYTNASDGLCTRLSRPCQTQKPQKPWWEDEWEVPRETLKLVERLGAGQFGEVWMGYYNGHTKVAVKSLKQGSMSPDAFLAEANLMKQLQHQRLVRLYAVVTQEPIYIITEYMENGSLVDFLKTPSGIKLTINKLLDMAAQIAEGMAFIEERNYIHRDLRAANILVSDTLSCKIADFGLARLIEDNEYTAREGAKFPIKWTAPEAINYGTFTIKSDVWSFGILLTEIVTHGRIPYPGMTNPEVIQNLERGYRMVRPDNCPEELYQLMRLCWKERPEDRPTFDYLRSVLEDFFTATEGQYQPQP
# Chain of UniProt Q8IYT8 (whole entry, looked up): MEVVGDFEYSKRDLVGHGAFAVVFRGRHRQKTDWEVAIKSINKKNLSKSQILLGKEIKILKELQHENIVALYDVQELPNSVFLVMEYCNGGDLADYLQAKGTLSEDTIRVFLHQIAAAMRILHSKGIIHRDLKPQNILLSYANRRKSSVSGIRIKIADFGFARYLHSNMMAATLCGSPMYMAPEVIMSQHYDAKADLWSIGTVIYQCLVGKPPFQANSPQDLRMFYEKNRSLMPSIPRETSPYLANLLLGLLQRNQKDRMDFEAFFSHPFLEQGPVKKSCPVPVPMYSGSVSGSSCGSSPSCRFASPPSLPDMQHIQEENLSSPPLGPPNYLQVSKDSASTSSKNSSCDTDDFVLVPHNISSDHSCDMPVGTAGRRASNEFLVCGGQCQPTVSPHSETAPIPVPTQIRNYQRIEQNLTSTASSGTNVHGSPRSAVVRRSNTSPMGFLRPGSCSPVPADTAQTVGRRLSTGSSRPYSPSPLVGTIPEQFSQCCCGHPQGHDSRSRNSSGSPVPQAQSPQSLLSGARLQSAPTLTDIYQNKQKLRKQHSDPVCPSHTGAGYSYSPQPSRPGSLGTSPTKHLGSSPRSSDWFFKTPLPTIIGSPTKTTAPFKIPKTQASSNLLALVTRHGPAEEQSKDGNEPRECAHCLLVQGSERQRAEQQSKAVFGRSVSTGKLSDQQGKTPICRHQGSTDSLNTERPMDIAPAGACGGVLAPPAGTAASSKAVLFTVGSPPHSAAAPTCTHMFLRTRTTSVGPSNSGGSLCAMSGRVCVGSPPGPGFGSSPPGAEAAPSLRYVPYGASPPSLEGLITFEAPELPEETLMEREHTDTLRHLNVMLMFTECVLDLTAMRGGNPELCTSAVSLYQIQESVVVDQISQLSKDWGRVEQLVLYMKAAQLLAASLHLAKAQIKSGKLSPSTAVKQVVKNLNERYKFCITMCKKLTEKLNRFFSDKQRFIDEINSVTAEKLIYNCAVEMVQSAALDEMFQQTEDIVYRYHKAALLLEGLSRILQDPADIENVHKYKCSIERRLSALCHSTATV
# Chain of UniProt P49137 (whole entry, looked up): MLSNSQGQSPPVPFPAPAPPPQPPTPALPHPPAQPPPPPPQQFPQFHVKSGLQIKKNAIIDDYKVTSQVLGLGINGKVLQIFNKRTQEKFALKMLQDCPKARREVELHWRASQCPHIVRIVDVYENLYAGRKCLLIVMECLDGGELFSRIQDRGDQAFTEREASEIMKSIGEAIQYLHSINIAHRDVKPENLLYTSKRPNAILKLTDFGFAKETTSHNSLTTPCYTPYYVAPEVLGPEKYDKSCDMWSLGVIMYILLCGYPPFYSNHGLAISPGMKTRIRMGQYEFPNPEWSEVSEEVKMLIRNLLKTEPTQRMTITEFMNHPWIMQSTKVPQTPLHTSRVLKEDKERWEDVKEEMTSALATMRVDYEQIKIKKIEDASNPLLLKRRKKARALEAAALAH
# Chain of UniProt Q6PHR2 (whole entry, looked up): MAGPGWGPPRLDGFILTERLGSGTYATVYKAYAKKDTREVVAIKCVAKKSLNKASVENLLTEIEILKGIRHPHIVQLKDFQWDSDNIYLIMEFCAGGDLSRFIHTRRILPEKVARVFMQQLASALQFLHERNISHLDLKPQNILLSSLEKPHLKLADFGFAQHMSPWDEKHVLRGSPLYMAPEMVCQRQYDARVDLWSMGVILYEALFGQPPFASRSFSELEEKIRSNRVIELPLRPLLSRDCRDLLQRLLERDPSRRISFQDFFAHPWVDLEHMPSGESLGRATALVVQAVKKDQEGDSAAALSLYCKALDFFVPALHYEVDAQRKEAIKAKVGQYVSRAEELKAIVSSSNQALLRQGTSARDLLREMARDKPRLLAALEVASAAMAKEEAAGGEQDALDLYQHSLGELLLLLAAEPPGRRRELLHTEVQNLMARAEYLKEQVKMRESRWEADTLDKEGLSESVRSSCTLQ
# Chain of UniProt Q9Y6M4 (whole entry, looked up): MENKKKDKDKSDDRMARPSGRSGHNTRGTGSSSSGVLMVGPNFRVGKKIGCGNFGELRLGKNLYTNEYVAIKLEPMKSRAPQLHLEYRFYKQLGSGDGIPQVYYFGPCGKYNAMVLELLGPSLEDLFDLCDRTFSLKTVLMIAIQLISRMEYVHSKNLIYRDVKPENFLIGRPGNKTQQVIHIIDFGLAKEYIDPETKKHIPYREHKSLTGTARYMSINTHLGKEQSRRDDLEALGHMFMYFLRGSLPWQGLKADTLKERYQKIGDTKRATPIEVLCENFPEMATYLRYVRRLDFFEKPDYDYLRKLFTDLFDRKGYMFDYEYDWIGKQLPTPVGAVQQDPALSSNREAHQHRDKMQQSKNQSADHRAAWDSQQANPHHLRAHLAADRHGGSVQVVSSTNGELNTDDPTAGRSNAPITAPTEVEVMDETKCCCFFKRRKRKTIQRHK

# Sample 1
# Target: Cyclic AMP-dependent transcription factor ATF-1 (ATF1, Homo sapiens, UniProt P18846, residues 1-271, full length assumed)
# Technique: protein-binding microarray
# Molecule type: double-stranded DNA, one strand shown
# Sample: in vitro
# Concentration: not given
# Notes: k-mer, scored over probes, only values ≥0.25
# Direction: higher = stronger binding
# Residues (chain): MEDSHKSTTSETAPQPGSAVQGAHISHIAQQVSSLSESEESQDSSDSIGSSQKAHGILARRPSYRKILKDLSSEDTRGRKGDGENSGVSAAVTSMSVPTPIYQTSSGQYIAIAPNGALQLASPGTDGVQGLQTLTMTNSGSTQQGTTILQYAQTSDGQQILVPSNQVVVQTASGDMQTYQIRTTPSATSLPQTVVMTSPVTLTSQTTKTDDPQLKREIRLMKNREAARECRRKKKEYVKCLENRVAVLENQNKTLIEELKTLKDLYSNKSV
Strand,E-score
ACGCGTC,0.382
ACGTTGA,0.315
ACGTGAC,0.396
CACACGC,0.25
GACGTTA,0.374
CGTCAAG,0.265
AATACGT,0.374
ACGTGGA,0.318

# Sample 2
# Structure (SMILES): FC(F)(F)c1ccc(/C=C/c2nc(COc3ccc(CCCCn4ccnn4)cc3)co2)cc1
# Effect on: enzyme activity
# Action: inhibitor
# Concentration: 0.5 µM
# Reference: control
target,remaining activity [%]
"CSNK1G3 (Homo sapiens, UniProt Q9Y6M4)",96.7
"NEK1 (Homo sapiens, UniProt Q96PY6)",94.5
"GRK7 (Homo sapiens, UniProt Q8WTQ7)",97.8
"MAP3K5 (Homo sapiens, UniProt Q99683)",97.2
"JAK3 (Homo sapiens, UniProt P52333)",93
"GSK3B (Homo sapiens, UniProt P49841)",100
"TEK (Homo sapiens, UniProt Q02763)",95.8
"MAPKAPK2 (Homo sapiens, UniProt P49137)",97.9
"TBK1 (Homo sapiens, UniProt Q9UHD2)",101
"WEE1 (Homo sapiens, UniProt P30291)",101
"LCK (Homo sapiens, UniProt P06239)",92.1
"ULK3 (Homo sapiens, UniProt Q6PHR2)",99.5
"ULK2 (Homo sapiens, UniProt Q8IYT8)",99.6
"MAP3K14 (Homo sapiens, UniProt Q99558)",95.8

# Sample 3
# Target: TAR DNA-binding protein 43, full length, His tag (TARDBP, Homo sapiens, UniProt Q13148, residues 1-414)
# Technique: RNA Bind-n-Seq
# Molecule type: RNA
# Sample: in vitro
# Concentration: 20 nM
# Notes: 6-mer, flanks averaged, single round
# Added: 150 mM LiCl
# Reference: input library
# Direction: higher = stronger binding
Strand,6-mer enrichment (R)
UCGUAC,0.844
CAGGUU,0.927
CGGAAU,0.898
CGUUUU,1.16
CUGGGG,1.15
UAGGGG,1.24
GGGUGA,1.37
UACACU,0.862

# Single results of other studies
Structure (SMILES),target,setting,measurement,value
C[C@H](c1ccnc(Nc2nc3ccc(-c4cc(N(C)C)ncn4)cc3[nH]2)c1)N1CCN(C(=O)CC(F)(F)F)CC1,"Serine/threonine-protein kinase TBK1 (TBK1, Homo sapiens, UniProt Q9UHD2)",0.1 µM,remaining activity,2.4%

# Excerpt of the above (sample 1):
Strand,E-score
ACGCGTC,0.382
GACGTTA,0.374
AATACGT,0.374
